Measurements of several laboratories.
Numbered parts are unrelated; each lists some results of a single study. Positions count from the first letter of the parent shown.

Set 1 — method: competition protein-binding microarray; molecule type: double-stranded DNA, one strand shown; medium: in vitro; concentration: 2 µM; added: Pho4 competitor, 0.05 µM; direction: higher = stronger binding; measurement: fluorescence intensity; shared flanks, not repeated: … GTCTTGATTCGCTTGACGCTGCTG
Target: Centromere-binding protein 1, full length, His-tagged (CBF1, Saccharomyces cerevisiae, UniProt P17106, residues 1-351)
Sequence of UniProt P17106 (whole entry, looked up): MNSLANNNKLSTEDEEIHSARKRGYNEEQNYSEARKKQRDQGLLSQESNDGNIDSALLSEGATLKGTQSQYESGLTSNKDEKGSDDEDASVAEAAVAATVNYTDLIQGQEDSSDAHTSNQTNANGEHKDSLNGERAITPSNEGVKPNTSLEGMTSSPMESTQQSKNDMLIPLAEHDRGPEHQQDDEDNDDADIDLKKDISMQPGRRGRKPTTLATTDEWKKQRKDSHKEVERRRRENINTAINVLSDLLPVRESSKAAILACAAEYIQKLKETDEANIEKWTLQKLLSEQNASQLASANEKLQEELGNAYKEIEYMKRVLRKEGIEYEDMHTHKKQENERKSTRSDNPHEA
Notes: whole 60-bp probe, lowest competitor level
CGTCCTAGTGATTGTTGGGTGGGTGCCATGAGGAAG: 99.7 a.u.
CTAACGAAGGTTTTTCACGTGTGCTACAAGCCAAGT: 650 a.u.
GTCTTGTCTCATTGTCACTTTACTTTCCCCACTTCA: 79.6 a.u.
CGGGGTTAAGTTTGTCACAGAACTTGCTTGCAGCAG: 87.8 a.u.
GTCTTGTCTCATTGGGTAGTGGGTGTCCCCACTTCA: 92.7 a.u.
GCGCAATATGCAGGTACCGTGCCGACTGATTCCCTT: 69.1 a.u.
TTCCATCCCACATTCCTCGTGTTGGATTGGCTGCAA: 80.9 a.u.
GAGGCAAACCATCACCATGTGGTGGTTTCAACATGA: 91.9 a.u.
CAATACCAGGACCTTTACGTGCAAATTTAGAGCGAA: 61.9 a.u.
TGGCGTACGACGACTCATGTGTGTTAGATTGGGACA: 61.7 a.u.
CTTCTGTAAATTTGCTAAGTGGGTGGACGCGCCCCG: 86.8 a.u.
AAATTACTAAGTTGTCATGTGGGTGACGCCGTATGA: 193 a.u.
AAATTACTAAGTTGGCACGTGTTTTACCCCGTATGA: 1640 a.u.
AAAAATGGTGGAAAGTGCGTGCGGATTTCTCGAGCC: 70.9 a.u.
GAGCTACTTTTTCAACACGTGCATCCAACTTGTAGC: 1770 a.u.
GTCTTGTCTCATTGTAGTGTGGGTGTCCCCACTTCA: 86.8 a.u.
CTACGCCGCTATTACTACGTGCTTTTTCTTTTGATT: 85.9 a.u.
CAAGGGGGGGCCAGACACGGGCCGCTCTGGTTGGTC: 93.7 a.u.
TAGAGGTGCCATTGTCATGTTCAGATCCAAAGAAGG: 55.1 a.u.

Set 2 — method: RNA Bind-n-Seq; molecule type: RNA; medium: in vitro; concentration: 365 nM; baseline: no-protein control; direction: higher = stronger binding; measurement: RBNS enrichment (R)
Target: RNA binding protein fox-1 homolog 2, RRM domain, GST-SBP tag (RBFOX2, Homo sapiens, UniProt O43251-10, residues 100-194)
Notes: natural RNA segment, single round, ends assumed
Shared flanks, not repeated: GGGAGUUCUACAGUCCGACGAUC … UGGAAUUCUCGGGUGCCAA
Construct (chain): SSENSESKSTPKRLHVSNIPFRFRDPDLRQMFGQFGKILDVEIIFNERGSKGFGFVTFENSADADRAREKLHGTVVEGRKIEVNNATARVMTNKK
UUUUGGAAAUGGGUGACCUGAAGUGACACUUUUUCCACAAUUAACCCAAGUUGUGUUAAUACUUCAGGUCUGUUUCCCAGACCCAGAAAGCUUUACAGAAAAUCAUUGUA: 0.338
UGAGAGGGAGACGGUAGGCCUUACCACUCAGACCUGGACGUAUAAGUGCUCACUUUUCCAACACAUCACAGCGAUAGUCCUUAUUGCUAAAGGACUUGGCUUCCCUCGGA: 0.255
AUUUCCAUCUGUCUGGUUAUGUCAAGUUAAUUCAGAAAGAGAAGAGACAGUGACCAACCCUGAGAGGCCUAAUAGGGCAGAGAUGGAGGCCUGCCCAGACUAGGAGGCAG: 0.439
GCACAAGAUAGUAUGUGCCAAUAUAGCCAAGAUAAUAUGUGAAAUGGUCUUUCUAAAUGAUUAAAGAAAUCAUUUGCGUUGGUUCUUGUUUUUUGUGUUUUCCCUCUAUU: 0.582
CCUCUGUACCUGCUCUUGGAAUGUCUCUGUCUUUGCCCUGCCGCCCACUUCCCGUGCCUAUGAUUUGCUCUAGCAUUUCUGCCACCUGACAAGGAGAGGAGCUUGCUAAA: 0.68
GAGUUUUCCGAGCCUCAGAAUCCAGGAGAUACGCACAGCCCCACCCACUCUGAGAUGACAGUGGCUGACUUCCCGUGCUGGGCUUUUCCAUUGUCCCCCUGGCCUCCAGG: 0.372
UCCAGUGUCUUCCACGGAGCCUCUGGGGCUCCUCCCUCACCUGGCAGCCCCUCCAGCUGCUGGUGAUCUCACCCCUGGGACAUUUUUCCAAUAAAGGUUCUGGACAAACU: 0.315
CCAUUAUCCAUUCCCAAGAUGCCUGAUCAGAAACCAACCAUGAAUGAACCCCUGGCUCCUUCACCACCCCCACGAUUGGUAUGAUGCUGCCGGCACAGCUGGGAUACACA: 0.661

Set 3 — method: RNA Bind-n-Seq; molecule type: RNA; medium: in vitro; concentration: not given; notes: RNA with constant flanks, ends assumed; baseline: input RNA pool; direction: higher = stronger binding; measurement: bound/input enrichment
Target: RING finger protein unkempt homolog, zinc fingers 1-6, GST-SBP tag (UNK, Homo sapiens, UniProt Q9C0B0, residues 30-357)
Shared flanks, not repeated: GGGAGUUCUACAGUCCGACGAUC … CAACAGAGGAUUGAGCAUCA
Construct (chain): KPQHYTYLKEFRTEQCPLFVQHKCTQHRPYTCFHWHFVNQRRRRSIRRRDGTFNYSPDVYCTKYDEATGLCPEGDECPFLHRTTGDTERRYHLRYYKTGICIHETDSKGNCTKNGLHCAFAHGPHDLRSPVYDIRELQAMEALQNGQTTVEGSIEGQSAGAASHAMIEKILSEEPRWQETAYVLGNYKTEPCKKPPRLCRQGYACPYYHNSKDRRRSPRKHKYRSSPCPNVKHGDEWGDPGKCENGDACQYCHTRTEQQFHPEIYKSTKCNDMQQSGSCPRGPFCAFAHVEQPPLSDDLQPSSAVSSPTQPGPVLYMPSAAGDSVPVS
ACCGGCGCAGUGCCCCGUCCUGAUUGAUCGCAUCGCUGGGCUCAGAUGACUGUAAAAUGAACCGAUGAAAUCCUUGCUUCUGGAAGAUUUUCUUGGGCAUCUCCGGGAAAGUGCGUUUUA: 0.174 ratio
ACGGCCAUGGCAACUAGUCUCACGAAUGUAGGAAACUCAUUUAGUGGUCCAGCUAAUCCUUCCGUGUCUAGAUCUAAUAAGUUUCAGAACUCGUCAGUGGAAGAUGAUGAUGAUGUUGUU: 1.59 ratio
CUGAAGUCUCUGCGGGAACUCAAUGUCCGAAGAAAUUACCUUAAGGUUUUACCACCAGAGCCCGCCGAUCUCCCCUUGGUAAAGUUUGACUUUUCCUGCAACAAGGUGCUGGUGAUCCCC: 0.142 ratio
AUCGUGGGAGCACUGAUGGCAAGUGGAAAAGAAGUAGCAGGAAAAAUUCCCAAAGGGAAGUCCGUCGACUUUGAAGCUAUGACAGCCCCUGGUUCAGAGGCCUUUAGCAAAGUCGCCAAA: 0.147 ratio
CUGAUGCCGAUUGUGUACACGCCAACAGUUGGUCUUGCCUGCUGUCAAUAUGGGCACAUCUUCCGGAGACCUAAGGGAUUGUUUAUUUCAAUCUCAGACAGAGGUCAUGUUAGAUCAAUU: 0.189 ratio
GACAGCUUGCUCAGUAACUUGGGGUGCCAGUCUGCCUCUCAUGUAGGGCCCUUCAUCGACCGCUACCGCUGCUUCCAACCAAAGCAGGAGGGGGCCUUCACCUGCUGGUCAGCAGUCACU: 0.064 ratio
CCAAAAUCUAUUCUUCAGUUGCCAGAGACAGAACUGGGAGAAUAUUCCCUAGGGGGCUACCGCAUUUCAUUUCUGAAGCAGCUUAUUGCUGGCAAGCUCCAGGAAUCUGUUCCAGACCCG: 0.216 ratio
UUCAGAGUCACAGUUCCCUUUAUUUCACAUAAGCCCAAACUGAUAGACAGUAACGGUGUUCCGUUUUAUACUAUAUUUGUGCUAUUUAAUUCUUUCUAUUUUCACAAUUAUUAAAUUGUG: 1.23 ratio

Other studies, line by line
P1: CDAN1 docking peptide (human); RGARSQLFPPTEA
KRNLLNEFDRII — enrichment score (Saccharomyces cerevisiae; binding, yeast competitive growth sequencing; peptide, cyclin D2-Cln2 fusion strain; peptide tiling library; direction not given): 0.365
PKNAKRNLSSEFAN — enrichment score (peptide binding; peptide, yeast competitive growth; added: B2-Cln2 chimera; direction not given): 0.151
P1 Q6A — normalised enrichment score (CCNE1, cyclin fold, Cln2 fusion (human); yeast growth competition, sequencing; yeast; weak parent motif; baseline: not given, higher = stronger binding): -0.045
SMTDFYHSKRRLIFSK — enrichment score (peptide binding; peptide, yeast competitive growth; added: B2-Cln2 chimera; direction not given): -0.563

A few entries again (set 3):
AUCGUGGGAGCACUGAUGGCAAGUGGAAAAGAAGUAGCAGGAAAAAUUCCCAAAGGGAAGUCCGUCGACUUUGAAGCUAUGACAGCCCCUGGUUCAGAGGCCUUUAGCAAAGUCGCCAAA: 0.147 ratio
ACGGCCAUGGCAACUAGUCUCACGAAUGUAGGAAACUCAUUUAGUGGUCCAGCUAAUCCUUCCGUGUCUAGAUCUAAUAAGUUUCAGAACUCGUCAGUGGAAGAUGAUGAUGAUGUUGUU: 1.59 ratio
CCAAAAUCUAUUCUUCAGUUGCCAGAGACAGAACUGGGAGAAUAUUCCCUAGGGGGCUACCGCAUUUCAUUUCUGAAGCAGCUUAUUGCUGGCAAGCUCCAGGAAUCUGUUCCAGACCCG: 0.216 ratio
UUCAGAGUCACAGUUCCCUUUAUUUCACAUAAGCCCAAACUGAUAGACAGUAACGGUGUUCCGUUUUAUACUAUAUUUGUGCUAUUUAAUUCUUUCUAUUUUCACAAUUAUUAAAUUGUG: 1.23 ratio
